Measurements gathered from unrelated publications.
Each line is one published result; not all experiments were run side by side. Numbers after ± are the reported error.
rep main protease: Replicase polyprotein 1ab, main protease (rep, Severe acute respiratory syndrome-related coronavirus, UniProt P0C6X7)
rep papain-like protease: Replicase polyprotein 1ab, papain-like protease (rep, Severe acute respiratory syndrome-related coronavirus, UniProt P0C6X7)
OPRK1: Kappa-type opioid receptor (OPRK1, Homo sapiens, UniProt P41145)
Sequence of UniProt P41145 (whole entry, looked up): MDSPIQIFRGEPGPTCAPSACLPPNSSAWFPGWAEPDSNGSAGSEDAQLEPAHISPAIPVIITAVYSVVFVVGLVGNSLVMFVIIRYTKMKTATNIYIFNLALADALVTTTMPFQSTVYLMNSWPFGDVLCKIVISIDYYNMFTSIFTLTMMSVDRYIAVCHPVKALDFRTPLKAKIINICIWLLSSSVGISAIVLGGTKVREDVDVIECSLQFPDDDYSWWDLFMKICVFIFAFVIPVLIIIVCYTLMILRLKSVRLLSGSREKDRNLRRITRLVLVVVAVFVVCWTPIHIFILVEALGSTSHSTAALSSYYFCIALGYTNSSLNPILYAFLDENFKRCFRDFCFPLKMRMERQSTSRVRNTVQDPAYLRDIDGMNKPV

`COC(=O)C[C@H](NC(=O)C(NC(=O)OCc1ccccc1)C(C)C)C(=O)CF` (some centres unmarked) has a Ki of 0.512 ± 0.025 µM (rep main protease; inhibitor).
`O=c1cc(C(F)(F)F)c2ccc(O)cc2o1` gave a Kd of 202 µM (rep papain-like protease; binding).
With `O=C(NC(NC(=O)OCc1ccccc1)c1ccc(C(F)(F)F)cc1)OCc1ccccc1` the Ki was 366 µM (rep main protease; enzyme activity, inhibitor).
`CSCC[C@@H](C=O)NC(=O)[C@H](CC(C)C)NC(=O)[C@H](CC(C)C)NC(C)=O` gave a Ki of 0.6 µM (rep main protease; enzyme activity, inhibitor).
`CC(C)C[C@H](NC(=O)[C@H](CO[C@@H]1O[C@H](CO)[C@@H](O)[C@H](O)[C@H]1O)NC(=O)[C@H](CCCCN)NC(=O)[C@H](CC(C)C)NC(=O)C(C)(C)NC(=O)[C@H](CCCCN)NC(=O)[C@H](CCC(=O)O)NC(=O)[C@H](C)NC(=O)[C@H](CC(C)C)NC(=O)[C@H](CC(N)=O)NC(=O)[C@@H]1CCCN1C(=O)[C@H](CC(C)C)NC(=O)[C@H](Cc1ccccc1)NC(=O)CNC(=O)[C@H](NC(=O)[C@@H](N)Cc1ccc(O)cc1)[C@H](C)O)C(N)=O` has a Ki of 0.0023 µM (OPRK1; ligand displacement, radioligand; pH 7.5, cell membranes).
The Ki of `CCC[C@H](NC(=O)[C@H](CC(C)C)NC(=O)OCc1ccccc1)C(=O)C(=O)NCc1ccccn1` is reported as 0.14 µM (rep main protease; enzyme activity, inhibitor).
With `O=[N+]([O-])c1ccc(O)c(O)c1` the Kd was 461 µM (rep papain-like protease; binding).
`CC(C)C[C@H](NC(=O)[C@H](CO[C@@H]1O[C@H](CO)[C@@H](O)[C@H](O)[C@H]1O)NC(=O)[C@H](CCCCN)NC(=O)[C@H](CC(C)C)NC(=O)CNC(=O)[C@H](CCCCN)NC(=O)[C@H](CCC(=O)O)NC(=O)[C@H](C)NC(=O)[C@H](CC(C)C)NC(=O)[C@H](CC(N)=O)NC(=O)[C@@H]1CCCN1C(=O)[C@H](CC(C)C)NC(=O)[C@H](Cc1ccccc1)NC(=O)CNC(=O)[C@H](NC(=O)[C@@H](N)Cc1ccc(O)cc1)[C@H](C)O)C(N)=O` gave a Ki of 0.0063 µM (OPRK1; ligand displacement, radioligand; pH 7.5, cell membranes).
`CC(=O)N[C@@H](CCC(=O)O)C(=O)N[C@@H](CO)C(=O)N[C@H](C(=O)N[C@@H](CC(C)C)C(=O)N[C@H](C=O)CCC(N)=O)[C@@H](C)O` has a Ki of 8.27 µM (rep main protease; enzyme activity, inhibitor; pH 7.3).
For `CC(C)C[C@H](NC(=O)OCc1ccccc1)C(=O)N[C@H](C=O)C[C@@H]1CCNC1=O`, the EC50 was 3.63 µM (rep main protease; viral replication).
`CCCCCCCCCCCCCCCC(=O)N[C@@H](CCC(=O)NCCOCCOCCC(=O)NCCOCCOCCC(=O)NCCCC[C@H](NC(=O)[C@H](CC(=O)O)NC(=O)[C@H](CC(C)C)NC(=O)[C@H](Cc1ccc(O)cc1)NC(=O)[C@H](CCCCN)NC(=O)[C@H](CO)NC(=O)[C@H](Cc1ccc(O)cc1)NC(=O)[C@H](CC(=O)O)NC(=O)[C@H](CO)NC(=O)[C@@H](NC(=O)[C@H](Cc1ccccc1)NC(=O)[C@@H](NC(=O)CNC(=O)[C@H](CCC(N)=O)NC(=O)[C@@H](CO)NC(=O)[C@@H](N)Cc1c[nH]cn1)[C@@H](C)O)[C@@H](C)O)C(=O)N[C@@H](CCCNC(=N)N)C(=O)N[C@@H](CCCNC(=N)N)C(=O)N[C@@H](C)C(=O)N[C@@H](CCC(N)=O)C(=O)N[C@@H](CC(=O)O)C(=O)N[C@@H](Cc1ccccc1)C(=O)N[C@H](C(=O)N[C@@H](CCC(N)=O)C(=O)N[C@@H](Cc1c[nH]c2ccccc12)C(=O)N[C@@H](CC(C)C)C(=O)N[C@@H](CC(C)C)C(=O)N[C@@H](CC(N)=O)C(=O)N[C@H](C(=O)NCC(=O)NCC(=O)N1CCC[C@H]1C(=O)N[C@@H](CO)C(=O)N[C@@H](CO)C(=O)NCC(=O)N[C@@H](C)C(=O)N1CCC[C@H]1C(=O)N1CCC[C@H]1C(=O)N1CCC[C@H]1C(=O)N[C@@H](CO)C(N)=O)[C@@H](C)O)C(C)C)C(=O)O` gave a half-life of 2.83 h (rhesus monkey, plasma; subcutaneous, 20 µg/kg, single dose).
`Oc1cc(O)cc(Oc2c(O)cc(O)cc2Oc2c(O)cc(O)cc2O)c1` gave a Ki of 8.2 µM (rep main protease; enzyme activity, inhibitor).
`COC(=O)c1ccccc1NC(=O)Cn1cc(C(=O)C(F)(F)F)c2ccccc21` gave a Ki of 27 ± 2 µM (rep main protease; inhibitor).
For `O=C[C@H](C[C@@H]1CCNC1=O)NC(=O)[C@H](CC1CCCCC1)NC(=O)c1cc2ccccc2[nH]1`, the EC50 was 5.38 µM (rep main protease; viral replication).

A few entries again:
`Oc1cc(O)cc(Oc2c(O)cc(O)cc2Oc2c(O)cc(O)cc2O)c1` gave a Ki of 8.2 µM (rep main protease; enzyme activity, inhibitor).
The Ki of `CCC[C@H](NC(=O)[C@H](CC(C)C)NC(=O)OCc1ccccc1)C(=O)C(=O)NCc1ccccn1` is reported as 0.14 µM (rep main protease; enzyme activity, inhibitor).
